Assay results pooled from the literature.
Protocols differ between the studies behind these lines. Numbers after ± are the reported error.

Molecule | test | test system | conditions | how to read | solubility
CC[C@H](C)[C@@H]1NC(=O)[C@H]([C@@H](C)O)NC(=O)[C@H](Cc2ccc(O)cc2)NC(=O)[C@H](CCCNC(=N)N)NC(=O)[C@@H]2CCCN2C(=O)[C@H]2CCCN2C(=O)[C@H]([C@@H](C)O)NC(=O)[C@H](C(C)C)NC(=O)[C@H](C(C)C)NC(=O)[C@H](CCCCN)NC(=O)[C@H](CO)NC(=O)[C@H](CCC(N)=O)NC(=O)[C@H](CO)NC(=O)[C@H](Cc2ccc(O)cc2)NC(=O)[C@H](CO)NC(=O)[C@H](Cc2ccc(O)cc2)NC(=O)[C@@H]2CCCN2C(=O)[C@H](CO)NC(=O)[C@H](CC(C)C)NC(=O)[C@H](CC(C)C)NC(=O)[C@H](C)NC(=O)[C@H](C)NC1=O | turbidity | PBS | 24 h |  | 265 µM
Oc1ccc(/C=C/c2cc(O)cc(O)c2)cc1 | shake flask | PEG-400 | 25 °C |  | 374000 µg/mL
C=CC[C@@H]1/C=C(\C)C[C@H](C)C[C@H](OC)[C@H]2O[C@@](O)(C(=O)C(=O)N3CCCC[C@H]3C(=O)O[C@H](/C(C)=C/[C@@H]3CC[C@@H](O)[C@H](OC)C3)[C@H](C)[C@@H](O)CC1=O)[C@H](C)C[C@@H]2OC | shake flask | 30% w/v nicotinamide solution | 3 days, 37 °C |  | 368 ± 12.8 µg/mL
CC[C@@H](C(=O)[C@@H](C)[C@@H](O)[C@H](C)CCc1ccc(C)c(O)c1C(=O)O)[C@H]1O[C@](CC)([C@H]2CC[C@](O)(CC)[C@H](C)O2)C[C@@H]1C |  | water | 24 h, pH 8 |  | 759 ± 100 µg/mL
Oc1c(Br)cc(Cl)c2cccnc12 | shake-flask | dimethylacetamide | 72 h, room temperature |  | > 80000 µg/mL
CC(/C=C/C=C(\C)C(=O)O)=C\C=C\C=C(C)\C=C\C=C(/C)C(=O)O | shake-flask | FeSSIF | 1 h, pH 5.8, 37 °C |  | 6.5 µg/mL
CCC[C@@]1(CCc2ccccc2)CC(O)=C([C@H](CC)c2cccc(NS(=O)(=O)c3ccc(C(F)(F)F)cn3)c2)C(=O)O1 |  | sesame oil | 72 h, 37 °C |  | 5900 ± 300 µg/mL
CC(=O)Oc1cc(-c2coc3cc(OC(C)=O)c(OC(C)=O)c(OC(C)=O)c3c2=O)cc(OC(C)=O)c1OC(C)=O |  | aqueous buffer |  |  | > 100 µM
COc1cc2c(cc1OC)CN(CCc1ccc(NC(=O)c3cccc4c(=O)c5cccc(OC)c5[nH]c34)cc1)CC2 |  | Carbitol | 24 h, 37 °C |  | 1310 ± 50 µg/mL
CCc1nc2c(C)cc(N3CCN(CC(=O)N4CC(O)C4)CC3)cn2c1N(C)c1nc(-c2ccc(F)cc2)c(C#N)s1 |  | FeSSIF |  |  | 3490 µg/mL
CC(=O)O[C@H]1C(=O)[C@@]2(C)[C@H]([C@H](OC(=O)c3ccccc3)[C@]3(O)C[C@H](OC(=O)[C@H](OC(=O)OCc4cc(C(=O)O)ccc4OP(=O)(O)O)[C@@H](NC(=O)c4ccccc4)c4ccccc4)C(C)=C1C3(C)C)[C@]1(OC(C)=O)CO[C@@H]1C[C@@H]2O |  | HBSS | 30 s, pH 6.5 |  | 100 µg/mL
CN(C)CCN1C(=O)c2ccccc2NC12C(=O)N(C)c1ccc(Br)cc12 (stereo not drawn) | dried DMSO stock | PBS | pH 7.4 |  | 814 ± 63 µM
Cc1ccc(-c2cc(C(F)(F)F)nn2-c2ccc(S(N)(=O)=O)cc2)cc1 |  | model fasted duodenal solution | pH 6.5 |  | 16 µg/mL
NC(=O)c1[nH]c2ccc(Cl)cc2c1S(=O)(=O)c1ccccc1 |  | 10% w/v BSA in water | 120 h, ambient |  | 55.9 µg/mL
CN1CC[C@H](c2c(O)cc(O)c3c(=O)cc(/C=C/c4c(Cl)cccc4Cl)oc23)[C@H](O)C1 |  | MeOH/CHCl3 75:25 v/v |  |  | > 10000 µg/mL
O=C(Nc1ccc([N+](=O)[O-])cc1Cl)c1cc(Cl)ccc1O | in vitro lipolysis | digested blank lipid formulation | 24 h, pH 6.5, 37 °C |  | ~30 µg/mL
CCCCN1C(=O)c2ccccc2NC12C(=O)N(C)c1ccc(Br)cc12 (stereo not drawn) | dried DMSO stock | PBS | pH 7.4 |  | 2.4 to 7.5 µM
CN(C)C(=N)NC(=N)N.C[C@H](CCC(=O)O)[C@H]1CC[C@H]2[C@@H]3[C@H](O)C[C@@H]4C[C@H](O)CC[C@]4(C)[C@H]3C[C@H](O)[C@]12C |  | Capryol 90 (propylene glycol monocaprylate) |  |  | < 5 mg/g
COC(=O)/C=C/C(=O)O |  | HBSS and DMEM media |  | soluble up to | ≥ 7380 µM
CSc1cc(C)nc(SC)c1NC(=O)CN1CCN(CCSc2nc3ccccc3[nH]2)CC1.Cl |  | 0.05 N HCl aqueous | 24 h, pH 1.3 |  | 19000 µg/mL
C=CC[C@@H]1/C=C(\C)C[C@H](C)C[C@H](OC)[C@H]2O[C@@](O)(C(=O)C(=O)N3CCCC[C@H]3C(=O)O[C@H](/C(C)=C/[C@@H]3CC[C@@H](O)[C@H](OC)C3)[C@H](C)[C@@H](O)CC1=O)[C@H](C)C[C@@H]2OC |  | menthol/camphor eutectic | menthol/camphor ratio 3/1 w/w |  | 136000 ± 5920 µg/mL
Tannic acid |  | aqueous buffer |  |  | > 100 µM
CC(=O)O[C@@]12CO[C@@H]1C[C@H](O)[C@@]1(C)C(=O)[C@H](O)C3=C(C)[C@@H](OC(=O)[C@H](O)[C@@H](NC(=O)OC(C)(C)C)c4ccccc4)C[C@@](O)([C@@H](OC(=O)c4ccccc4)[C@H]21)C3(C)C |  | Miglyol 808 | 24 h |  | 52100 ± 840 µg/mL
CCCN(Cc1ccccc1OC)C(=O)c1ccc(F)c(Br)c1 |  | 50 mM phosphate buffer | 12 h, pH 7.4, 37 °C |  | > 500 µg/mL
COCCN1C(=O)c2ccccc2NC12C(=O)N(C)c1ccc(Br)cc12 (stereo not drawn) | dried DMSO stock | PBS | pH 7.4 |  | 58 ± 16 µM
COc1cc(/C=C/C(=O)CC(=O)/C=C/c2ccc(O)c(OC)c2)ccc1O |  | 1,2-propanediol | 48 h, room temperature |  | 2680 ± 250 µg/mL
C[C@](N)(Cc1ccc(O)c(O)c1)C(=O)O | static gravimetric method | supercritical CO2, 777.5 kg/m3 | 5 h, 333 K, pressure 24 MPa |  | 303 µg/mL

A few entries again:
Molecule | test | test system | conditions | how to read | solubility
COc1cc2c(cc1OC)CN(CCc1ccc(NC(=O)c3cccc4c(=O)c5cccc(OC)c5[nH]c34)cc1)CC2 |  | Carbitol | 24 h, 37 °C |  | 1310 ± 50 µg/mL
CCc1nc2c(C)cc(N3CCN(CC(=O)N4CC(O)C4)CC3)cn2c1N(C)c1nc(-c2ccc(F)cc2)c(C#N)s1 |  | FeSSIF |  |  | 3490 µg/mL
CC(=O)O[C@H]1C(=O)[C@@]2(C)[C@H]([C@H](OC(=O)c3ccccc3)[C@]3(O)C[C@H](OC(=O)[C@H](OC(=O)OCc4cc(C(=O)O)ccc4OP(=O)(O)O)[C@@H](NC(=O)c4ccccc4)c4ccccc4)C(C)=C1C3(C)C)[C@]1(OC(C)=O)CO[C@@H]1C[C@@H]2O |  | HBSS | 30 s, pH 6.5 |  | 100 µg/mL
